Published values of several laboratories.
Protocols differ between the studies behind these lines. ± gives the spread as reported.
IDE: Insulin-degrading enzyme (IDE, Homo sapiens, UniProt P14735)

`NCCONC(=O)[C@@H]1CC[C@@H]2CN1C(=O)N2OS(=O)(=O)O`: “cumulative urinary excretion (0-24 h)” 91.8% (human, male, urine; intravenous infusion, 1 g multiple doses, day 9; reference: dose).
With `COC[C@H]1C[C@@H](c2ncc(-c3ccc4c(c3)COc3cc5c(ccc6nc([C@@H]7CC[C@H](C)N7C(=O)[C@@H](NC(=O)OC)C(C)C)[nH]c65)cc3-4)[nH]2)N(C(=O)[C@H](NC(=O)OC)c2ccccc2)C1` the Vss was 2.2 L/kg (human, plasma; oral, 150 mg).
`CCn1c(=O)c(-c2cc(NC(=O)Nc3ccccc3)c(F)cc2Br)cc2cnc(NC)cc21`: “participants with grade ≥ 3 TEAE” 0% (item: accidental overdose; human, severe hepatic impairment; oral, 50 mg single dose).
`Nc1ccn([C@@H]2O[C@H](CO)[C@@H](O)C2(F)F)c(=O)n1` has a Vz/F of 0.27 ± 0.02 (mg/kg)/(µg/mL) (Sprague-Dawley rat, male, plasma; intravenous, 5 mg/kg).
With `CN(c1ccc(F)cc1)c1c(-c2ccc(F)cn2)nc2ccccn12` the CC50 was over 63.1 µM (peritoneal macrophages, Swiss mice; 5 days, 5% fetal calf serum).
For `CC(=O)O[C@H]1C(=O)[C@@]2(C)[C@H]([C@H](OC(=O)c3ccccc3)[C@]3(O)C[C@H](OC(=O)[C@H](O)[C@@H](NC(=O)c4ccccc4)c4ccccc4)C(C)=C1C3(C)C)[C@]1(OC(C)=O)CO[C@@H]1C[C@@H]2O`, “adverse event incidence” read 28% (item: Dysgeusia; patients with advanced solid tumours; intravenous, dose not given, all grades, possibly related to drug).
`Cc1nc(-c2cnc(NC(C)C)n(C)c2=O)ccc1Oc1ccnc(-c2cnn(C)c2)c1` has an apparent clearance of 1.5 mL/min/kg (DBA/1 mouse, female, plasma; oral, 7.5 mg/kg, single dose).
`CO[C@@H]1[C@H](OC(=O)N2CC(CCN3CCOCC3)C2)CC[C@]2(CO2)[C@H]1[C@@]1(C)O[C@@H]1CC=C(C)C` has a heart rate of 0 ± 10.3 beats/min (humans; subcutaneous, 1.8 mg twice weekly for 4 weeks, day 28; reference: baseline).
Under “patients with treatment-related dizziness”, `Cc1cc(-c2nnc(N)nc2-c2ccc(F)cc2)cc(Cl)n1` is recorded as 15.4% (human male, IO-naive mCRPC; oral, dose not given, phase Ia/Ib, any grade).
With `Cc1cccc(CNC(=O)c2cn(CCNC(=O)c3ccccc3Sc3c([N+](=O)[O-])ncn3C)c3cc4c(cc3c2=O)OC(F)(F)O4)n1` the bioavailability was 62% (Sprague-Dawley rat, male, plasma; intramuscular, 3 mg/kg of parent drug).
`CC(C)(C(=O)N1CCOc2c(C#N)cncc2C1)C(F)F` — result for “subjects with investigations TEAE”: 0% (human, both sexes; oral, 30 mg single dose).
`CNCc1ccc(-c2[nH]c3cc(F)cc4c3c2CCNC4=O)cc1`: “patients with adverse event” 50% (item: Asthenia/fatigue; human patients; oral, dose not given, all grades, all doses).
`Cc1ccc(Sc2ccccc2N2CCNCC2)c(C)c1`: “any adverse event” 0% (healthy adult men; oral, 10 mg single, 10 day).
`Cc1cc(NC2CCN(C(=O)OC3CCN(C(=O)/C=C/CN(C)C)C3)CC2)n2ncc(C(C)C)c2n1` (stereo not drawn): “patients with adverse event” 0% (Phase I dose escalation CTCAE v4.0, item: AST increased; patients with advanced solid tumours; dose not given, QD dosing grade 3 or higher).
Under “patients with ALT increased”, `C=CCN1CC(=O)N2[C@@H](Cc3ccc(O)cc3F)C(=O)N(Cc3cccc(N4CC(N5CCN(CC)CC5)C4)n3)C[C@@H]2N1C(=O)NCc1ccccc1` is recorded as 0% (advanced solid tumour patients; 30 mg twice daily, treatment-related, any grade).
`CCN1/C(=C/C(C)=O)Sc2ccc(F)cc21` — result for “PR interval change”: 99.8 ± 2.9% (cynomolgus monkey; oral, 30 mg/kg, 24 h post-dose; reference: pre-dose).
`C[C@@H]1OC(=O)[C@H](Cc2ccccc2)[C@H]1O` gave a DT50 of 1.45 days (aerobic dark soil incubation; sandy loam soil; 20 °C, persistence endpoint).
The albumin of `C=CC(=O)Nc1cc(Nc2nccc(-c3cn(C4CC4)c4ccccc34)n2)c(OC)cc1N(C)CCN(C)C` is reported as 26.9 ± 0.52 g/L (BALB/c nude mice, LU0387 xenograft, serum; oral, 40 mg/kg).
Under “incidence of Amnesia”, `NC1(C(=O)N[C@@H](CCO)c2ccc(Cl)cc2)CCN(c2nc[nH]c3nccc2-3)CC1` is recorded as 0% (metastatic CRPC patients; 400 mg b.i.d., grade 3 to 4, treatment-related, together with: enzalutamide 160 mg daily).
`NC[C@@]1(CC(=O)O)[C@@H]2CC[C@H]3C[C@@H]2[C@@H]1C3` — result for “cumulative urinary excretion”: 14 ± 1.21 mg (humans with normal renal function, urine; oral, 20 mg single dose).
For `Nc1ncc(-c2ccncc2)nc1Nc1ccc2[nH]ccc2c1`, the tmax was 0.25 h (C57BL mice, plasma; subcutaneous, 10 mg/kg).
`O=C(O)CCC(=O)O.[2H]C([2H])([2H])Oc1cc(C)c2[nH]ccc2c1CN1CC[C@@H](C2CC2)C[C@H]1c1ccc(C(=O)O)cc1` — result for “subjects with TEAE Anemia”: 0% (multiple ascending dose; healthy Chinese subjects; 100 mg twice daily).
The viability of `NC(=O)c1cccc(N)c1` is reported as 100% (HBL-1; 1 µM, 120 h).
With `CO[C@H]1CC[C@H](N2C(=O)CNc3ncc(-c4ccc(C(C)(C)O)nc4)nc32)CC1` the renal clearance was 1.21 mL/min (patients, urine; oral, 15 mg, day -1, geometric mean).
`CN1C[C@H](COc2nccc3c(NCc4ccco4)cc(Cl)nc23)OC1=O`: “left ventricular end-diastolic pressure” 6 mmHg (rabbit NZW female, isolated Langendorff heart; 10 µM, 15 min).
`O=C(Nc1nc2cccc(-c3ccc(CN4CCS(=O)(=O)CC4)cc3)n2n1)C1CC1` — result for “slower absorption mixture fraction”: 0.807 (population PK model; human; oral, SIR median).
With `Cc1cc(C)c(CNC(=O)c2cc(Cl)c3c(c2C)O[C@@](C)([C@H]2CC[C@H](N(C)C)CC2)O3)c(=O)[nH]1` the cumulative excretion was 71.4% (item: total radioactivity; male human, feces; oral, 200 mg, 96 h; reference: dose).
`O=C(c1cccnc1-c1ccncc1)N1CCC(O)(Cc2ccccc2)CC1`: “participants with serious adverse events” 0% (healthy Japanese adults; oral, dose not given).
`Cn1cc(-c2cn3nccc3c(-c3cnn([C@]4(CC#N)C[C@@H](C#N)C4)c3)n2)cn1`: “apparent clearance CL/F” 63.2 L/h (healthy humans fasted, plasma; 100 mg single dose, geometric mean).
For `Cn1cc(Nc2nccc(-c3ccc4c(c3)CN(C3COC3)CC[C@H]4NC(=O)c3cn(C(C)(C)C)nn3)n2)cn1`, “percent change from baseline” read -11.6% (item: class-switched memory B cells; human, clinical trial, whole blood; 150 mg twice daily, follow-up).
`CCCCC[C@H](O)CC[C@@H]1[C@H]2Cc3cccc(OCC(=O)O)c3C[C@H]2C[C@H]1O` — result for “geometric mean AUC(0-inf)”: 0.89 ng·h/mL (LC-MS/MS; Japanese PAH patients ≥56.7 kg, plasma; inhaled, 54 µg).
`O=C(Nc1nc2cccc(-c3ccc(CN4CCS(=O)(=O)CC4)cc3)n2n1)C1CC1` — result for “patients with Arthralgia”: 8.3% (rheumatoid arthritis patients; oral, 100 mg twice daily, 4 weeks, TEAE regardless of relatedness).
Under “grade 3 adverse events”, `N#CCNC(=O)c1ccc(-c2ccnc(Nc3ccc(N4CCOCC4)cc3)n2)cc1` is recorded as 0% (healthy volunteers; oral, 100 mg, together with: ritonavir 100 mg).
The AUClast of `COc1nnc2ccc(N3CCC(c4ccc(OCCN5CCN(C)C(=O)[C@H]5C)cc4)CC3)nn12` is reported as 0.669 µM·h (human, plasma; oral, 40 mg once daily, single dose, monotherapy).
`N#Cc1ccc2c(c1)[C@H]1CCCN(C(=O)c3ccc4[nH]cnc4c3)[C@H]1C2` gave a DHEA-S level of 6.8 µmol/L (human, male; 20 mg, day 7).
`COc1ccc2c(c1)CN(C(=O)CCN1CCC(Cc3ccccc3)CC1)CC[S@@+]2[O-]` has a fu of 0.336 (rat plasma; 1000 ng/mL).
For `CCc1cc(C(=O)NC)c2nccc(N3CCc4c(cc(Cn5ccnc5)cc4-c4cn(C)nc4C(F)(F)F)C3=O)c2c1`, “serum AST change” read 1.8% (Sprague Dawley rats; oral, 50 mg/kg once daily, 7 days; reference: vehicle).
The plasma concentration of `Cn1cc([C@H]2C[C@H]3CSC(N)=N[C@@]3(c3ccc(F)cc3F)CO2)cn1` is reported as 527 nM (male 129/SVE mouse, plasma; subcutaneous, 50 mg/kg, 13 h).
`COc1ccnc(C(=O)N[C@H]2COC(=O)[C@H](Cc3ccccc3)[C@@H](O)[C@H](C)OC2=O)c1O` gave a DT50 of 14 days (aerobic dark soil incubation; silt loam soil; 20 °C, persistence endpoint).
The recovery of `C=CC(=O)Nc1cc(Nc2nccc(-c3cn(C)c4ccccc34)n2)c(OC)cc1N(C)CCN(C)C` is reported as 98.2% (storage stability; human dried blood spot; 10 d, -80 °C, LQC level).
For `Nc1ncnc2c1c(Oc1cc(C(F)(F)F)ccn1)nn2[C@@H]1CCCC[C@H]1O`, metabolic stability read “stable” (dog liver microsomes).
Under “postural dizziness incidence”, `O=C(Nc1cnccc1Cl)N1CCN(Cc2ccc3c(c2)OC(F)(F)O3)CC1` is recorded as 0% (multiple ascending dose; young women; 100 mg, treatment-emergent adverse events).
For `OC[C@H]1O[C@@H](c2ccc(Cl)c(Cc3ccc(O[C@H]4CCOC4)cc3)c2)[C@H](O)[C@@H](O)[C@@H]1O`, “change in ALT” read 1 U/L (Japanese type 1 diabetes patients, blood; 25 mg, day 28; reference: baseline).
The metabolic stability of `COc1ccc(/S(=N/C(=O)C(C)(C)C)c2ccc(C)cc2)cc1` (stereo not drawn) is reported as 44% (human liver microsomes; reference: hepatic blood flow).
With `CSc1ccccc1C(=O)NCCn1cc(C(=O)NCc2cccc(C)n2)c(=O)c2cc3c(cc21)OC(F)(F)O3` the AUC(0-t) was 80.4 ± 16.2 ng·h/mL (Sprague-Dawley rat, male, plasma; intramuscular, 10 mg/kg of parent compound).
`COc1cc(C(=O)N2CCC3(CC2)CC(=O)c2c(cnn2C(C)C)C3)cc(-c2ccc(C(=O)O)cc2)n1` — result for “percentage change from baseline”: -17.3% (item: HDL cholesterol; human, fasting serum; 100 mg every 12 h, day 13, adjusted geometric mean; reference: baseline).
For `CCCOc1ccc([C@H]2CNC(=O)N2c2ccc3[nH]cnc3c2)cc1`, the AUC(0-24h) was 716 ng·h/mL (human elderly fasted, CSF; oral, 500 mg twice daily tablet, day 11, geometric mean).
Under “ulcer preventive index”, `COc1ccc(/C=N/NC(=O)Cn2c(-c3ccc(S(C)(=O)=O)cc3)nc3cc(C)ccc32)cc1` is recorded as 65.3% (rat, stomach; concentration not given, 4 h; reference: normal control).
With `CCCCCN(C)CCC(O)(P(=O)(O)O)P(=O)(O)OP(=O)(O)OC[C@H]1O[C@@H](n2ccc(N)nc2=O)C(F)(F)[C@@H]1O` (stereo partly drawn) the hydrolysis half-life was 34.7 h (human serum; concentration not given, 37 °C, 50% serum).
The AUC(0-inf) of `COc1ccc2[nH]c([S+]([O-])Cc3ncc(C)c(OC)c3C)nc2c1` (stereo not drawn) is reported as 393 ± 250 ng·h/mL (healthy Chinese volunteers, plasma; oral, 20 mg, fed, CYP2C19 rapid metabolizers).
Under “any adverse event”, `CC(=O)N(C)[C@H]1CCN(C(=O)c2cnc3c(c2)C[C@](C)(c2ccc(F)cc2)N3)C1` is recorded as 100% (healthy male subjects, multiple rising dose; oral, 15 mg once daily).
`Cc1ccccc1-c1ccc([C@H]2[C@@H](CO)N3CCCCN(S(=O)(=O)c4cn(C)cn4)C[C@@H]23)cc1` has an EC50 of over 100 µM (IDE; enzyme activity, inhibitor, fluorogenic kinetic; together with: Mca-RPPGFSAFK(Dnp)-OH substrate).
Under “subjects with Vomiting”, `C[C@H]1CN(C(=O)CC#N)[C@]12CCN(c1ncnc3[nH]ccc13)C2` is recorded as 12.5% (healthy human; oral, 6 mg single).
`COc1ccccc1-c1ccc([C@H]2[C@@H](CO)N[C@@H]2CNC(=O)C2CCCC2)cc1` gave an EC50 of 5.1 µM (IDE; enzyme activity, inhibitor, fluorogenic kinetic; together with: Mca-RPPGFSAFK(Dnp)-OH substrate).
`COc1cc2nccc(Oc3ccc(NC(=O)c4cc5c(n(-c6ccccc6)c4=O)CCCC5=O)nc3)c2cc1OC` — result for “grade ≥3 Pneumonia patients”: 33.3% (relapsed or refractory AML; oral, 6 mg once daily).
`Cc1c(Cl)c(C)[n+]([O-])c(Cl)c1-c1noc(-c2cc(O)c(O)c([N+](=O)[O-])c2)n1`: “adverse drug reaction incidence” 0% (item: Hyperhidrosis; healthy Caucasian subjects; oral, 50 mg, 20 days).
`COc1cc2c(Nc3ccc(Cl)c(Cl)c3F)ncnc2cc1OC[C@@H]1C[C@@H]2CN(C)C[C@@H]2C1`: “total brain concentration” 2970 nM (FVB wild-type mice, brain; intraperitoneal infusion (osmotic pump), 10 µg/h, 48 h).
`Cc1ccc([C@@H]2O[C@H](CO)[C@@H](O)[C@H](O)[C@H]2O)cc1Cc1ccc(-c2ccc(F)cc2)s1` — result for “urinary chloride excretion change”: -37.1 mEq (Japanese type 2 diabetes patients; 25 mg, day 6, 24 h urine collection; reference: baseline).
With `Nc1ncn([C@@H]2O[C@H](CO)[C@@H](O)[C@H]2O)c(=O)n1` the viability was 102% (HBL-1; 1 µM, 120 h).
For `OC[C@H]1O[C@@H](c2ccc(F)c(Cc3cc4ccccc4s3)c2)[C@H](O)[C@@H](O)[C@@H]1O`, “hypoglycaemia-related adverse event” read 4% (Japanese patients, type 1 diabetes; oral, 50 mg/day, onset day 12; reference: patients).
